Results gathered from unrelated publications.
Compare with care: the assays were run in different laboratories. Several values in a cell are separate wells, animals, samples, runs or records. ± marks the error that the study gave.
UniProt Q14315, sequence (whole entry, looked up): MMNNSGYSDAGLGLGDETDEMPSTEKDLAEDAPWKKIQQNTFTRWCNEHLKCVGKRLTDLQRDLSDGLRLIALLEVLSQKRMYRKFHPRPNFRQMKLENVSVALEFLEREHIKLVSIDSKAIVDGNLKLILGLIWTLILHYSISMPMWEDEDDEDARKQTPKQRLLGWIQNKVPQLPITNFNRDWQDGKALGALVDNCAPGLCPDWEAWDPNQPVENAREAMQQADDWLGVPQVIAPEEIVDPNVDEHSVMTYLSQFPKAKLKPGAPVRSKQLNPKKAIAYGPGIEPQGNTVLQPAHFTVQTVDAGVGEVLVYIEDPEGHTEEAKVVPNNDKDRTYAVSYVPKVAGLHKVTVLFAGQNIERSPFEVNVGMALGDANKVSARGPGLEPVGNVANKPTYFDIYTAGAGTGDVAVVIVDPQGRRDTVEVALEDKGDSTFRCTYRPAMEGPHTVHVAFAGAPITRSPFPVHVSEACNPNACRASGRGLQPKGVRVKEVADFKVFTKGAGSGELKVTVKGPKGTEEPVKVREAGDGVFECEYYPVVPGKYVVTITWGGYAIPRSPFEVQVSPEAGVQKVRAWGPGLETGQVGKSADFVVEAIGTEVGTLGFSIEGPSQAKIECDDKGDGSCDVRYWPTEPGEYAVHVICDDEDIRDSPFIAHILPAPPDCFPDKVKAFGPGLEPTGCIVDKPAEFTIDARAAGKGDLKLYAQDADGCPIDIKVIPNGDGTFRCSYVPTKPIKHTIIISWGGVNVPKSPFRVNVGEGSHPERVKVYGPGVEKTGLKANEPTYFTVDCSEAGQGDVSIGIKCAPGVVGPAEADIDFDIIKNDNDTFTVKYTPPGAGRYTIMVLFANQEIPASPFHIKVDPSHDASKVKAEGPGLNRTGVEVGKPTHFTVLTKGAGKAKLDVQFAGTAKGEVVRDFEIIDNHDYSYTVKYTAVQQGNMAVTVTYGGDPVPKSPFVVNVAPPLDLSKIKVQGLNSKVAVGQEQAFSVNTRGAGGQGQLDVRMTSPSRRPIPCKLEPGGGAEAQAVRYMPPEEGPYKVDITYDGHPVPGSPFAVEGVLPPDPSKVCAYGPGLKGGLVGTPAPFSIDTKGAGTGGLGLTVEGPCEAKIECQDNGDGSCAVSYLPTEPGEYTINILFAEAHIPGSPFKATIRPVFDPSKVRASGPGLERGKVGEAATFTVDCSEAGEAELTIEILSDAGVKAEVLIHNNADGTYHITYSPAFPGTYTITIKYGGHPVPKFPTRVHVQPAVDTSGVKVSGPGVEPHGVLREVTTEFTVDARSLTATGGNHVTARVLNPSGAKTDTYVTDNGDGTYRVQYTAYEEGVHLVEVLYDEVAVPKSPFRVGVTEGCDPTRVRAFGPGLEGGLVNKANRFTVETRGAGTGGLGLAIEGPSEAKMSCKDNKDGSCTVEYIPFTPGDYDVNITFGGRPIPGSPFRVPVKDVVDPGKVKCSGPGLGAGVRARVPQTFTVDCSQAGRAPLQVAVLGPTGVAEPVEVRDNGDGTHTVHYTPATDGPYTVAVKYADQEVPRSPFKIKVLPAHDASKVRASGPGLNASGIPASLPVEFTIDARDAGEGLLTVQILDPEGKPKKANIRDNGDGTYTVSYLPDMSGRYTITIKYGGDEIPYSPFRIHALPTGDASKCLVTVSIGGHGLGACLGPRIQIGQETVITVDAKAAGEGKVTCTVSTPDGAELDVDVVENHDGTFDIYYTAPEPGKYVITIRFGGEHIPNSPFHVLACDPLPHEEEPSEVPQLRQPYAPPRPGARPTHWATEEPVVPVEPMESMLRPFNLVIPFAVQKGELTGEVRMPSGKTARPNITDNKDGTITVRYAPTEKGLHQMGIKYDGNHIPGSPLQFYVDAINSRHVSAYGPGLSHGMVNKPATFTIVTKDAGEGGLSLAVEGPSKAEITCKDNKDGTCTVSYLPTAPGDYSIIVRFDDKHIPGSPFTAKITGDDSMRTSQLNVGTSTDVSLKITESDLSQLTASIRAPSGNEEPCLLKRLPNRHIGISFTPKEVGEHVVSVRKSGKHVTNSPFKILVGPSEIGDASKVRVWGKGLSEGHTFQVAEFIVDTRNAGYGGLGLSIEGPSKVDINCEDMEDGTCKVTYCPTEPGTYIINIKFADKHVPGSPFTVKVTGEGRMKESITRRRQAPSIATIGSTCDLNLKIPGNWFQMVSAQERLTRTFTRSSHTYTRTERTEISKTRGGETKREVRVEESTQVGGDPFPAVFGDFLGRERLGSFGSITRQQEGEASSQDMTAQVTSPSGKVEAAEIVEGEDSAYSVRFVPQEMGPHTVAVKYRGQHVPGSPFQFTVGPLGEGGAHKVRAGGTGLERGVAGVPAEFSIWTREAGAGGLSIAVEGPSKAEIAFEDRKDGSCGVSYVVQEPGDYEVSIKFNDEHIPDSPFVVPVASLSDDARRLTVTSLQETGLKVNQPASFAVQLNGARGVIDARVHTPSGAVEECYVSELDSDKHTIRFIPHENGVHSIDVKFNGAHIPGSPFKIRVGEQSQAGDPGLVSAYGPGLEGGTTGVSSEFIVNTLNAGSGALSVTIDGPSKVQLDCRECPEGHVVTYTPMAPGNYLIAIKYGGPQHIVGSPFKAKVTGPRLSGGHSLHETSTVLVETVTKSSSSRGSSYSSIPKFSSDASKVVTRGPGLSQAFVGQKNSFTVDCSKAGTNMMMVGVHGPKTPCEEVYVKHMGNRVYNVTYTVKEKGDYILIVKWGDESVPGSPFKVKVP

| SMILES | target or system | assay | test system | setting | scale | endpoint | value |
| --- | --- | --- | --- | --- | --- | --- | --- |
| COc1cccc2c1C(=O)c1c(O)c3c(c(O)c1C2=O)C[C@@](O)(C(=O)CO)C[C@@H]3O[C@H]1C[C@H](N)[C@H](O)[C@H](C)O1 | human gingival fibroblasts | MTS | – | 5 µM | – | cytotoxicity | not toxic |
| O=[N+]([O-])c1ccc(-c2nn(-c3ccccc3)c3sc(NC(c4ccccc4O)P(=O)(Oc4ccccc4)Oc4ccccc4)nc23)cc1 (stereo not drawn) | BNL mouse liver cells | SRB | – | 0.01 µM, 10% fetal bovine serum | – | viability | 102% |
| COc1ccc(NC(=O)N2CCCCN3[C@H](CN(C)C)[C@H](c4ccc(C#Cc5ccccc5)cc4)[C@@H]3C2)cc1 | differentiated THP-1 | – | – | 72 h | baseline: THP-1 CC50 over EC50 | selectivity index | 25 |
| CN1CCN(S(=O)(=O)c2ccc(-c3ccc4c(Nc5ccc(OCc6cccc(F)c6)c(Cl)c5)ccnc4c3)cc2)CC1 | NIH 3T3 | PrestoBlue | 2% FBS medium | 96 h | – | TC50 | 14 µM |
| CC(C)C[C@H](NC(=O)[C@H](C)NC(=O)[C@@H](NC(=O)[C@H](CCCNC(=N)N)NC(=O)[C@H](CC(C)C)NC(=O)[C@H](Cc1c[nH]c2ccccc12)NC(=O)[C@@H]1CCCN1C(=O)[C@@H](N)CCCCN)C(C)C)C(=O)N[C@@H](CS)C(=O)N1CCC[C@H]1C(=O)NCC(=O)O | HEp-2 | WST-1 | – | 4 µM, 24 h | – | viability | 105% and 104% and 92.1% |
| COc1ccc(Cl)cc1NC(=O)CSc1nc2ccccc2nc1N1CCCCC1 | Vero-E6 | CellTiter-Glo ATP | – | 72 h, first round 5-point | baseline: DMSO 0%, hyamine -100%, more negative, more toxic | maximum response | -1.77% |
| CC(C)C[C@@H](NC(=O)[C@H](N)CCCCN)C(=O)N[C@@H](C(=O)N[C@H](Cc1ccccc1)C(=O)N[C@H](Cc1ccccc1)C(N)=O)C(C)C | NGF-differentiated PC-12 neurons | – | – | 10 µM, 24 h | baseline: untreated | viability | 100% |
| Oc1ccc(C(c2ccc(O)cc2)(C(F)(F)F)C(F)(F)F)cc1 | HepG2 spheroids, dissociated | annexin V-FITC/PI flow cytometry | – | 10 µM, 24 h | – | early apoptotic cells | 13.1 ± 2.35% |
| O=c1ccc2ccccc2o1 | NHEK | cell count | – | concentration not given, 24 h, PGC1alpha mitochondrial stress panel | – | chance response | 4.58% |
| Cc1oc(-c2cccc(Cl)c2)nc1CN1CCCC(C(=O)NCCc2ccc(Cl)cc2)C1 (stereo not drawn) | Vero-E6 | CellTiter-Glo ATP | – | concentration not given, 72 h, first round 5-point | baseline: DMSO 0%, hyamine -100%, more negative, more toxic | cytotoxicity efficacy | -18.6% |
| C[C@H]1CN(c2n[nH]c3nc(N[C@H]4CC[C@H](NS(=O)(=O)CCC(F)(F)F)CC4)ncc23)CCO1 | Filamin-C (FLNC, Homo sapiens, UniProt Q14315) | Kinobeads competition, measured: FLNC | – | 0.032 µM, unit not given | baseline: vehicle | remaining binding | 0.93 |
| Clc1ccc(-c2nn3c(Cn4nnc5ccccc54)nnc3s2)c(Cl)c1 | HEp-2 | cytotoxicity | – | – | – | CC50 | > 100 µM |
| CN(CCC=C1c2ccccc2CCc2ccccc21)N=O | TK6 | – | – | 10 µM, 4 h, added: hamster liver S9 | baseline: vehicle | relative survival | 31.3% |
| CC(Nc1nc(N2CCNCC2C)nc2ccccc12)c1ccccc1 (stereo not drawn) | Vero-E6 | CellTiter-Glo ATP | – | concentration not given, 72 h, second round 5-point | baseline: DMSO 0%, hyamine -100%, more negative, more toxic | cytotoxicity efficacy | 0% |
| COc1ccc(Nc2nn3c(-c4ccccc4)ccnc3c2C(=O)Nc2ccccc2)cc1 | WI-38 | MTT | serum-free medium | 31.13 µg/mL, 48 h | – | viability | 82.7% |
| CN1CCCN(S(=O)(=O)c2ccc(-c3ccc4ncc(C#N)c(Nc5ccc(OCc6cccc(F)c6)c(Cl)c5)c4c3)cc2)CC1 | NIH 3T3 | PrestoBlue | 2% FBS medium | 96 h | – | TC50 | 24 µM |
| CC(C)(C)c1cc(-c2nn3c(Cn4cnc5ccccc54)nnc3s2)cc(C(C)(C)C)c1 | HEp-2 | cytotoxicity | – | – | – | CC50 | 1.3 µM |
| CC[C@H](C)[C@H](NC(=O)[C@H](C)NC(=O)[C@H](CO)NC(=O)[C@@H](NC(=O)[C@H](CCCCN)NC(=O)[C@H](CCSC)NC(=O)[C@H](CC(C)C)NC(=O)[C@H](CO)NC(=O)[C@H](CC(C)C)NC(=O)[C@H](CCCNC(=N)N)NC(=O)[C@H](Cc1c[nH]cn1)NC(=O)[C@@H](NC(=O)[C@H](CC(C)C)NC(=O)[C@H](CC(N)=O)NC(=O)[C@H](Cc1ccccc1)NC(=O)CN)[C@@H](C)CC)[C@@H](C)O)C(=O)N[C@@H](CCCCN)C(=O)N[C@@H](CCCCN)C(=O)N[C@H](C(=O)N[C@@H](CCCNC(=N)N)C(=O)N[C@@H](CC(N)=O)C(=O)N1CCC[C@H]1C(=O)N[C@@H](CCCCN)C(=O)NCC(=O)N1CCC[C@H]1C(=O)N[C@@H](CC(C)C)C(=O)N[C@H](C(=O)N[C@@H](CC(C)C)C(=O)N[C@@H](CCCNC(=N)N)C(=O)N[C@@H](CC(C)C)C(=O)NCC(=O)N[C@@H](C)C(=O)N[C@@H](C)C(=O)N1CCC[C@H]1C(=O)N[C@H](C(=O)N[C@H](C(=O)N[C@@H](CCC(N)=O)C(=O)N1CCC[C@H]1C(=O)N[C@H](C(=O)N[C@@H](CCCNC(=N)N)C(=O)N[C@@H](CCCNC(=N)N)C(=O)N[C@H](C(=O)N[C@@H](Cc1ccccc1)C(=O)N1CCC[C@H]1C(=O)N[C@@H](CCCNC(=N)N)C(=O)NCC(=O)N[C@@H](CC(C)C)C(=O)N1CCC[C@H]1C(=O)O)C(C)C)[C@@H](C)O)[C@@H](C)O)C(C)C)[C@@H](C)CC)[C@@H](C)CC | THP-1, PMA-differentiated | cell viability, MTT | – | – | – | CC50 | 262 µM |
| CCCN(CCC)CCCNC(=O)C1CCCN(Cc2nc(-c3ccc(Cl)cc3)oc2C)C1 (stereo not drawn) | Vero-E6 | CellTiter-Glo ATP | – | 72 h, second round 5-point | baseline: DMSO 0%, hyamine -100%, more negative, more toxic | maximum response | -15.8% |
| CCCCNC(=O)n1c(NC(=O)OC)nc2ccccc21 | WA09 hESC-derived forebrain rosette tissues | neural induction and rosette emergence | – | 5 days | – | cytotoxic concentration | > 1 µM |
| O=S(=O)(c1ccc(-c2ccc3nccc(Nc4cnccn4)c3c2)cc1)N1CCOCC1 | NIH 3T3 | cytotoxicity, PrestoBlue | – | 96 h, 2% FBS | – | TC50 | > 20 µM |
| CC(C)C[C@@H](NC(=O)[C@H](N)CCCCN)C(=O)N[C@H](CC(C)C)C(=O)N[C@H](Cc1ccccc1)C(=O)N[C@H](Cc1ccccc1)C(=O)N[C@H](C)C(=O)N[C@H](CCC(=O)O)C(N)=O | NGF-differentiated PC-12 neurons | – | – | 10 µM, 24 h | baseline: untreated | viability | 100% |
| C/C=C(/C)C(=O)OC[C@H]1[C@@H](Cc2ccc(F)cc2)CO[C@@H]1c1ccc(F)cc1 | rat aortic VSMCs | – | – | 30 µM, 24.5 h | – | LDH release | 5.9 ± 3.5% |
| CC(C)c1cc2c(c(O)c1O)[C@@]1(C(=O)O)CCCC(C)(C)[C@@H]1CC2 | HeLa, SW480 and HCT-116 | CCK-8 | – | 80 µM, 24 h | – | cytotoxicity | not toxic |
| Oc1ccc(C2(c3ccc(O)cc3)c3ccccc3-c3ccccc32)cc1 | HepG2 spheroids, dissociated | annexin V-FITC/PI flow cytometry | – | 0.1 µM, 24 h | – | late apoptotic cells | 14.3 ± 2.49% |
| Cc1cc(Nc2ccnc3ccc(-c4ccc(S(=O)(=O)N5CCOCC5)cc4)cc23)on1 | NIH 3T3 | cytotoxicity, PrestoBlue | – | 96 h, 2% FBS | – | TC50 | > 20 µM |

| SMILES | target or system | assay | test system | setting | scale | endpoint | value |
| --- | --- | --- | --- | --- | --- | --- | --- |
| CCCCN1CCC(N(Cc2ccccc2)C(=O)Nc2cccnc2)CC1 | HCC95 cells | CellTiter-Glo | – | – | – | LD50 | > 200 µM |
| CC(c1ccccc1)(c1ccc(O)cc1)c1ccc(O)cc1 | HepG2 spheroids | annexin V-FITC/PI flow cytometry | – | 0.01 µM, 96 h | – | necrotic cells | 45.2 ± 12.5% |
| CN(C)N=O | HepaRG | – | – | maximum tested, 24 h, 72 h recovery | baseline: vehicle | relative survival | 68% |
| c1ccc2c(c1)nnn2Cc1nnc2sc(-c3ccc4c(c3)OCCO4)nn12 | HEp-2 | cytotoxicity | – | – | – | CC50 | > 100 µM |
| CC(C)C[C@@H](N)C(=O)N[C@H](Cc1ccccc1)C(=O)N[C@H](Cc1ccccc1)C(=O)N[C@H](C)C(N)=O | NGF-differentiated PC-12 neurons | – | – | 20 µM, 24 h | baseline: untreated | viability | 96.5% |
| Cc1cccc(N2CCN(C(=O)C3CCN(Cc4nc(-c5ccc(Cl)cc5)oc4C)CC3)CC2)c1C | Vero-E6 | CellTiter-Glo ATP | – | 72 h, first round 5-point | baseline: DMSO 0%, hyamine -100%, more negative, more toxic | maximum response | -2.26% |
| N.N.[Cl][Pt][Cl] | HepaRG | – | – | concentration not given, highest tested concentration | baseline: vehicle | micronucleus fold increase | 11.7 fold |
| COc1ccc(Nc2nc(Nc3ccc(OC)cc3OC)nc(N3CCOCC3)n2)c(OC)c1 | Vero-E6 | CellTiter-Glo ATP | – | 72 h, second round 5-point | baseline: DMSO 0%, hyamine -100%, more negative, more toxic | maximum response | -12.9% |
| Cc1ccc(N)cc1N | HepaRG | – | – | maximum tested, 24 (unit not given) | baseline: vehicle | micronuclei fold increase | 1 fold |
| O=S(=O)(c1ccc(-c2ccc3nccc(Nc4ccncc4)c3c2)cc1)N1CCOCC1 | NIH 3T3 | cytotoxicity, PrestoBlue | – | 96 h, 2% FBS | – | TC50 | > 20 µM |
| CC(C)C[C@@H](NC(=O)[C@H](N)CCCCN)C(=O)N1CCC[C@@H]1C(=O)N[C@H](Cc1ccccc1)C(=O)N[C@H](Cc1ccccc1)C(=O)N[C@H](C)C(=O)N[C@H](CCC(=O)O)C(N)=O | NGF-differentiated PC-12 neurons | – | – | 160 µM, 24 h | baseline: untreated | viability | 79.3% |
| Cc1cnnc(Nc2ccnc3ccc(-c4ccc(S(=O)(=O)N5CCOCC5)cc4)cc23)c1 | NIH 3T3 | cytotoxicity, PrestoBlue | – | 96 h, 2% FBS | – | TC50 | > 20 µM |
| Cc1ccc2[nH]c3c(c2c1)CCCC3NCCc1ccc(Cl)cc1 (stereo not drawn) | A549 | – | – | 50 µM, 23 h | – | non-viable cells | 69.2 ± 26% |
| O=C(NCCCN1CCCCCC1)c1ccc2c(c1)sc1nc(-c3ccccc3)cn12 | Vero-E6 | CellTiter-Glo ATP | – | 72 h, second round 5-point | baseline: DMSO 0%, hyamine -100%, more negative, more toxic | maximum response | -26.1% |
| CC(C)C[C@@H](NC(=O)[C@H](N)CCCCN)C(=O)N[C@H](CC(C)C)C(=O)N[C@H](Cc1ccccc1)C(N)=O | NGF-differentiated PC-12 neurons | – | – | 160 µM, 24 h | baseline: untreated | viability | 92.2% |
| [Cl][Cd][Cl] | HepaRG | – | – | maximum tested, 24 h, 72 h recovery | baseline: vehicle | relative survival | 67% |
| CO[C@H]1C[C@@H]2CC[C@@H](C)[C@@](O)(O2)C(=O)C(=O)N2CCCC[C@H]2C(=O)O[C@H]([C@H](C)C[C@@H]2CC[C@@H](OC(=O)NCCOCCOCCOCCOCCOCCOCCOCCOCCC(=O)N3CCc4cc(Cn5nc(-c6ccc7oc(N)nc7c6)c6c(N)ncnc65)ccc4C3)[C@H](OC)C2)C[C@@H](O)[C@H](C)/C=C(\C)[C@@H](O)[C@@H](OC)C(=O)[C@H](C)C[C@H](C)/C=C/C=C/C=C/1C | – | – | patients with advanced solid tumours | intravenous, dose not given, any grade | – | incidence of Diarrhea TEAE | 28.1% |
| O=S(=O)(c1ccc(O)cc1)c1ccc(O)cc1 | HepG2 spheroids, dissociated | annexin V-FITC/PI flow cytometry | – | 1 µM, 24 h | – | late apoptotic cells | 15.7 ± 10.5% |
| CC(C)C[C@@H](N)C(=O)N[C@H](Cc1ccccc1)C(=O)N[C@H](Cc1ccccc1)C(=O)N[C@H](C)C(=O)N[C@H](CCC(=O)O)C(N)=O | NGF-differentiated PC-12 neurons | – | – | 80 µM, 24 h | baseline: untreated | viability | 56.8% |
| Cc1cc(C(C)(C)c2ccc(O)c(C)c2)ccc1O | HepG2 spheroids, dissociated | annexin V-FITC/PI flow cytometry | – | 0.01 µM, 96 h | – | viable cells | 37.8 ± 2.55% |
| Cc1ccc(Nc2ccnc(N3CCC(C(=O)NCCCc4ccccc4)CC3)n2)cc1 | Vero-E6 | CellTiter-Glo ATP | – | 72 h, second round 5-point | baseline: DMSO 0%, hyamine -100%, more negative, more toxic | maximum response | -29.1% |
| CC(C)C[C@@H](N)C(=O)N[C@H](CC(C)C)C(=O)N[C@H](Cc1ccccc1)C(=O)N[C@H](Cc1ccccc1)C(=O)N[C@H](C)C(N)=O | NGF-differentiated PC-12 neurons | – | – | 10 µM, 24 h | baseline: untreated | viability | 92.5% |
| CN(CC(O)c1cccc(O)c1)N=O (stereo not drawn) | TK6 | – | – | – | – | micronucleus induction | negative |
| CC(C)C[C@@H](NC(=O)[C@H](N)CCCCN)C(=O)N[C@H](CC(C)C)C(=O)N[C@H](Cc1ccccc1)C(=O)N[C@H](Cc1ccccc1)C(=O)N[C@H](C)C(N)=O | NGF-differentiated PC-12 neurons | – | – | 10 µM, 24 h | baseline: untreated | viability | 98.7% |
| COc1cc2c(Oc3ccc4[nH]c(C)cc4c3F)ccnc2cc1OCC1(N)CC1 | – | – | paediatric recurrent refractory sarcoma | 12 mg | – | grade 3 TBIL elevation | 9.1% |
